Experimental data gathered from unrelated publications.
Each line is one published result; not all experiments were run side by side. Numbers after ± are the reported error.

| SMILES | test | test system | setting | fraction unbound |
| --- | --- | --- | --- | --- |
| CC(F)(F)CN1Cc2cc(C(F)(F)F)ncc2C2=CN=C(NCc3c(F)ccc4c3CCO4)N3C=NC(C1=O)C23 (stereo not drawn) | – | mouse plasma | – | < 0.01 |
| NC(=O)N1c2ccccc2C=Cc2ccccc21 | – | mouse plasma | – | 0.271 |
| FC(F)(F)c1cc(Nc2ncnc3ccc(-c4cccc(N5CCOCC5)c4)cc23)ccc1Cl | – | human plasma | – | < 0.0005 |
| O=S(=O)(c1ccc(-c2ccc3nccc(Nc4ccc(OCc5cccc(F)c5)cc4)c3c2)cc1)N1CCOCC1 | – | human plasma | – | < 0.001 |
| CN1CCC(Nc2ncnc3ccc(-c4cccc(N5CCOCC5)c4)cc23)CC1 | – | human plasma | – | 0.28 |
| O=c1nc(N2CCN(CC3CCCCC3)CC2)sc2c([N+](=O)[O-])cc(C(F)(F)F)cc12 | equilibrium dialysis | human plasma | 1 µM, 18 h, pH 7.4 | 0.004 |
| C[C@@H](NC(=O)c1ccc(C#Cc2cccc(F)c2)cn1)C(C)(C)O | – | brain homogenate | – | 0.007 |
| Nc1ccc(S(=O)(=O)c2ccc(N)cc2)cc1 | equilibrium dialysis | human plasma | – | 0.381 |
| C=CC(=O)Nc1cc(Nc2nccc(-c3cn(C)c4ccccc34)n2)c(OCC(F)(F)F)nc1N(C)CCN(C)C | equilibrium dialysis | human plasma | – | 0.63% |
| COc1ccc([C@@H]2Sc3ccccc3N(CCN(C)C)C(=O)[C@@H]2OC(C)=O)cc1 | rapid equilibrium dialysis | rat plasma | 2 µM, 6 h, pH 7.4 | 0.261 |
| CC(=O)Nc1nnc(N2CCN([C@@H](C)c3ccc4c(c3)OCO4)CC2)s1 | – | mouse plasma | 1 µM | 0.115 |
| N#C[C@@]12C[C@@H]1[C@@H](n1cnc3c(N[C@@H](C4CCC4)C4CC4)nc(I)nc31)[C@H](O)[C@@H]2O | plasma protein binding | mouse plasma | – | 0.0058 |
| CC(C)NCC(O)COc1cccc2ccccc12 (stereo not drawn) | rapid equilibrium dialysis | human plasma | 10 µM, 4 h, 37 °C | 0.186 |
| COCC(=O)N1CCC[C@H](C(=O)NCc2nc(-c3ccccc3)cs2)C1 | – | mouse plasma | 6 h | 0.062 |
| CC(O)C(C)n1ncn(-c2ccc(N3CCN(c4ccc(OCC5COC(Cn6cncn6)(c6ccc(Cl)cc6Cl)O5)cc4)CC3)cc2)c1=O (stereo not drawn) | equilibrium dialysis | human plasma | – | 0.008 ± 0.005 |
| C=C(F)C(=O)N1CCN(c2nc(OC[C@@H]3CCCN3C)nc3c2CCN(c2cccc4cccc(Cl)c24)C3)C[C@@H]1CC#N | equilibrium dialysis | human plasma | – | 0.023 |
| O=C1C2N=CN3C(NCc4c(F)ccc5c4CCO5)=NC=C(c4cnc(C(F)(F)F)cc4CN1CC(F)F)C23 (stereo not drawn) | – | rat plasma | – | < 0.01 |
| COc1cc2c3c(n(CCCN4CCOCC4)c(=O)c2cc1OC)-c1cc2c(cc1C3=O)OCO2 | equilibrium dialysis | dog plasma | 10760 ng/mL, 24 h, 37 °C | 0.023 |
| O=[N+]([O-])c1ccc(Nc2ncnc3ccc(-c4cccc(N5CCOCC5)c4)cc23)cc1C(F)(F)F | – | human plasma | – | < 0.0026 |
| CC(=O)CC(c1ccccc1)c1c(O)c2ccccc2oc1=O (stereo not drawn) | rapid equilibrium dialysis | human plasma | 2 µM, 6 h, pH 7.4 | 0.0068 |
| Cc1cnnc(Nc2ccnc3ccc(-c4ccc(S(=O)(=O)N5CCOCC5)cc4)cc23)c1 | – | human plasma | – | 0.05 |
| N#C[C@@]1(c2ccc3c(N)ncnn23)O[C@H](CO)[C@@H](O)[C@H]1O | – | mouse plasma | 100 µM | 0.897 |
| O=C1N[C@H](c2cncc(C#Cc3ccccc3)c2)[C@@H](c2ccccc2Cl)O1 | – | plasma | rat, monkey or human | 0.001 to 0.005 |

| SMILES | test | test system | setting | fraction unbound |
| --- | --- | --- | --- | --- |
| N#Cc1cc(-c2ccc(C(=O)N3CCNCC3)cc2)ccc1-n1cc(O)c(=O)c(C(=O)O)c1 | – | human plasma | – | 0.74 |
| C=CC(=O)Nc1cc(Nc2nccc(Nc3cc(Cl)c(F)cc3C(C)(C)O)n2)c(OC)cc1N1CC[C@@H](N(C)C)C1 | – | rat brain slices | – | 0.0026 ± 0.0007 |
| O=S(=O)(c1ccc(-c2ccc3nccc(Nc4ccncc4)c3c2)cc1)N1CCOCC1 | – | human plasma | – | 0.059 |
| CC(C)NCC(O)COc1cccc2ccccc12 (stereo not drawn) | equilibrium dialysis | human plasma | – | 0.169 |
| Cc1ccccc1CN1C(=O)C2=C(CCN(Cc3ccccc3)C2)N2CCN=C12 | equilibrium dialysis | plasma | 1.932 mg/L | 0.0389 |
| CN(c1ncco1)c1ncnc2ccc(-c3cccc(N4CCOCC4)c3)cc12 | – | human plasma | – | 0.11 |
| N#Cc1ccc(-c2cc(=O)c3ccc4[nH]c(C(F)(F)F)nc4c3o2)cc1 | – | plasma | – | 0.1% |
| CN1CCN(c2cccc(-c3ccc4ncnc(Nc5ccc(Cl)c(Cl)c5)c4c3)c2)CC1 | – | human plasma | – | < 0.0047 |
| C/C(O)=C(\C#N)C(=O)Nc1ccc(C(F)(F)F)cc1 | rapid equilibrium dialysis | CD-1 mouse plasma | 24 h | 0.022 ± 0.00068 |
| Cc1cccc(C)c1OCC(=O)N[C@@H](Cc1ccccc1)[C@@H](O)C[C@H](Cc1ccccc1)NC(=O)[C@H](C(C)C)N1CCCNC1=O | – | patients with elevated AAG, plasma | oral, weeks 2 and 16 | 0.0025 |
| CCCC[C@@H]1NC(=O)[C@H](Cc2ccc(O)cc2)NC(=O)[C@@H]2CCCN2C(=O)[C@H](CC(=O)O)NC(=O)[C@H](C)NC(=O)[C@H](Cc2ccccc2)NC(=O)[C@@H]2CSCCC(=O)N3CN(CN(C3)C(=O)CCSC[C@@H](C(=O)N[C@@H](CNC(=O)CCOCCOCCOCCOCCOCCOCCOCCOCCOCCOCCOCCOCCn3cc(CCC(=O)NCCC(=O)N(C)CC(=O)N(C)CC(=O)N(C)CC(=O)N(C)CC(=O)N(C)CC(=O)N(C)CC(=O)N(C)CC(=O)N(C)CC(=O)N(C)CC(=O)N(C)CC(=O)N[C@H]4CSCCC(=O)N5CN6CN(C5)C(=O)CCSC[C@H](NC(=O)[C@@H](CC(=O)O)NC(=O)[C@H](Cc5cccc7ccccc57)NC(=O)[C@@H]5CCCN5C4=O)C(=O)N[C@@H](CCSC)C(=O)N[C@@H](CCCCNC(=N)N)C(=O)N[C@@H](CC(=O)O)C(=O)N[C@@H](Cc4c[nH]c5ccccc45)C(=O)N[C@@H](CO)C(=O)N[C@@H]([C@@H](C)O)C(=O)N4CCC[C@H]4C(=O)N4C[C@H](O)C[C@H]4C(=O)N[C@@H](Cc4c[nH]c5ccccc45)C(=O)N[C@H](C(N)=O)CSCCC6=O)nn3)C(N)=O)NC1=O)C(=O)CCSC[C@H](NC(C)=O)C(=O)N[C@@H](CC(C)(C)C)C(=O)N1CCC[C@H]1C(=O)N[C@@H](CCC(=O)O)C(=O)N[C@H](C)C(=O)N1CCC[C@H]1C(=O)N[C@@H](Cc1ccc(O)cc1)C(=O)N2 | ultracentrifugation | rat plasma | – | 0.34 |
| COCCc1ccc(OCC(O)CNC(C)C)cc1 (stereo not drawn) | rapid equilibrium dialysis | human plasma | 2 µM, 6 h, pH 7.4 | 0.914 |
| Cc1c(Br)cc(NC(=O)CS(=O)(=O)O)cc1Br | equilibrium dialysis | mouse plasma | 4.5 h | < 0.01 |
| C=CC(=O)N1CC2(CCN(c3nc4c(c(-c5cc(O)cc6ccccc56)c3F)COC(C)(C)C4)C2)C1 | – | mouse plasma | – | 0.007 |
| Cc1nsc(-c2nnc3n2CCN(C(=O)c2ccc(F)cc2)[C@@H]3C)n1 | – | blood | – | 0.49 |
| CC#Cc1cncc(-c2ccc3c(c2)[C@@]2(N=C(C)C(N)=N2)[C@]2(CC[C@H](OC)CC2)C3)c1 | equilibrium dialysis | human plasma | 6 h, pH 7.4 | 0.087 |
| CN1CCN(c2cccc(-c3ccc4ncnc(Nc5ccc([N+](=O)[O-])c(C(F)(F)F)c5)c4c3)c2)CC1 | – | human plasma | – | < 0.0027 |
| C[C@@H](Oc1cc(-c2cnn(C3CCNCC3)c2)cnc1N)c1c(Cl)ccc(F)c1Cl | equilibrium dialysis | cell medium with 10% FBS | – | 0.83 |
| O=S(=O)(c1ccc(-c2ccc3nccc(Nc4ccccc4)c3c2)cc1)N1CCOCC1 | – | human plasma | – | 0.012 |
| CC(=O)Nc1ccc(O)cc1 | rapid equilibrium dialysis | human plasma | 2 µM, 6 h, pH 7.4 | 0.745 |
| CN1CC(Oc2cnc(C#N)cc2-c2ccn3nc(NC(=O)C4CC4)cc3c2)C1 | – | mouse plasma diluted 25% | 1 µM, 6 h, pH 7.4 | 0.46 |
| Cc1cnc(Nc2ccnc3ccc(-c4ccc(S(=O)(=O)N5CCOCC5)cc4)cc23)s1 | – | human plasma | – | 0.004 |

Some of these lines once more:
| SMILES | test | test system | setting | fraction unbound |
| --- | --- | --- | --- | --- |
| Cc1cccc(C)c1OCC(=O)N[C@@H](Cc1ccccc1)[C@@H](O)C[C@H](Cc1ccccc1)NC(=O)[C@H](C(C)C)N1CCCNC1=O | – | patients with elevated AAG, plasma | oral, weeks 2 and 16 | 0.0025 |
| CCCC[C@@H]1NC(=O)[C@H](Cc2ccc(O)cc2)NC(=O)[C@@H]2CCCN2C(=O)[C@H](CC(=O)O)NC(=O)[C@H](C)NC(=O)[C@H](Cc2ccccc2)NC(=O)[C@@H]2CSCCC(=O)N3CN(CN(C3)C(=O)CCSC[C@@H](C(=O)N[C@@H](CNC(=O)CCOCCOCCOCCOCCOCCOCCOCCOCCOCCOCCOCCOCCn3cc(CCC(=O)NCCC(=O)N(C)CC(=O)N(C)CC(=O)N(C)CC(=O)N(C)CC(=O)N(C)CC(=O)N(C)CC(=O)N(C)CC(=O)N(C)CC(=O)N(C)CC(=O)N(C)CC(=O)N[C@H]4CSCCC(=O)N5CN6CN(C5)C(=O)CCSC[C@H](NC(=O)[C@@H](CC(=O)O)NC(=O)[C@H](Cc5cccc7ccccc57)NC(=O)[C@@H]5CCCN5C4=O)C(=O)N[C@@H](CCSC)C(=O)N[C@@H](CCCCNC(=N)N)C(=O)N[C@@H](CC(=O)O)C(=O)N[C@@H](Cc4c[nH]c5ccccc45)C(=O)N[C@@H](CO)C(=O)N[C@@H]([C@@H](C)O)C(=O)N4CCC[C@H]4C(=O)N4C[C@H](O)C[C@H]4C(=O)N[C@@H](Cc4c[nH]c5ccccc45)C(=O)N[C@H](C(N)=O)CSCCC6=O)nn3)C(N)=O)NC1=O)C(=O)CCSC[C@H](NC(C)=O)C(=O)N[C@@H](CC(C)(C)C)C(=O)N1CCC[C@H]1C(=O)N[C@@H](CCC(=O)O)C(=O)N[C@H](C)C(=O)N1CCC[C@H]1C(=O)N[C@@H](Cc1ccc(O)cc1)C(=O)N2 | ultracentrifugation | rat plasma | – | 0.34 |
| COCCc1ccc(OCC(O)CNC(C)C)cc1 (stereo not drawn) | rapid equilibrium dialysis | human plasma | 2 µM, 6 h, pH 7.4 | 0.914 |
| Cc1c(Br)cc(NC(=O)CS(=O)(=O)O)cc1Br | equilibrium dialysis | mouse plasma | 4.5 h | < 0.01 |
| C=CC(=O)N1CC2(CCN(c3nc4c(c(-c5cc(O)cc6ccccc56)c3F)COC(C)(C)C4)C2)C1 | – | mouse plasma | – | 0.007 |
| Cc1nsc(-c2nnc3n2CCN(C(=O)c2ccc(F)cc2)[C@@H]3C)n1 | – | blood | – | 0.49 |
| CC#Cc1cncc(-c2ccc3c(c2)[C@@]2(N=C(C)C(N)=N2)[C@]2(CC[C@H](OC)CC2)C3)c1 | equilibrium dialysis | human plasma | 6 h, pH 7.4 | 0.087 |
